Results from different studies.
Each numbered part is a random draw from the data of one study; scales do not carry over between parts.
Sequence of UniProt P11802 (whole entry, looked up): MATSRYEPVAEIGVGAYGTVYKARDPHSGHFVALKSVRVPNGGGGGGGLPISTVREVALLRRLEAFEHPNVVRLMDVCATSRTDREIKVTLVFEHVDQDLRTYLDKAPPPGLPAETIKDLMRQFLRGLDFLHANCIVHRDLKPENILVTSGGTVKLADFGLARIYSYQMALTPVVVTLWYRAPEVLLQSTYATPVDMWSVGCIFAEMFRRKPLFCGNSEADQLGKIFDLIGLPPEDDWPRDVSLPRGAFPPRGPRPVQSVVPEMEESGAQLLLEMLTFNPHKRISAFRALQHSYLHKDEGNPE
Sequence of UniProt Q9H3Y6 (whole entry, looked up): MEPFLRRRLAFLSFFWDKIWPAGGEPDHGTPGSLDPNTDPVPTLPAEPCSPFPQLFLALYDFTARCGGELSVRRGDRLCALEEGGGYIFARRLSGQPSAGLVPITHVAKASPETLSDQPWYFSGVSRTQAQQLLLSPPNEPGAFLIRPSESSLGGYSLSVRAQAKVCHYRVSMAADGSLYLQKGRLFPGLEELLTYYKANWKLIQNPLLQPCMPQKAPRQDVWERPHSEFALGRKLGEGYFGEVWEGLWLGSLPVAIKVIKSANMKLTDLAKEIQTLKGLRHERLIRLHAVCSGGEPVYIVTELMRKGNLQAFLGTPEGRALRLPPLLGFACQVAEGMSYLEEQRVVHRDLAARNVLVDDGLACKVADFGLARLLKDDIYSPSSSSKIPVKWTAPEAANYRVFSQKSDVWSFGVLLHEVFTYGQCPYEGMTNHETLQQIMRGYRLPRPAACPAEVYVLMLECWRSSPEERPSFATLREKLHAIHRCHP
Sequence of UniProt P48729 (whole entry, looked up): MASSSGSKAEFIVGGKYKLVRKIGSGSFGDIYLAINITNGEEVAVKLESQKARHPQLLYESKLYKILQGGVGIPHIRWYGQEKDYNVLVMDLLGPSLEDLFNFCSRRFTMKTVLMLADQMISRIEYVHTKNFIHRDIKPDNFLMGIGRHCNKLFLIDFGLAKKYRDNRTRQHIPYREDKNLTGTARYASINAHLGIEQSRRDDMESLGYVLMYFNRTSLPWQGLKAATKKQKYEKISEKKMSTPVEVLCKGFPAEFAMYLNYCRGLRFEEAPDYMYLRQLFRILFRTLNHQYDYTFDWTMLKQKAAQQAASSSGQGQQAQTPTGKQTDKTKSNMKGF
Sequence of UniProt Q9BYP7 (whole entry, looked up): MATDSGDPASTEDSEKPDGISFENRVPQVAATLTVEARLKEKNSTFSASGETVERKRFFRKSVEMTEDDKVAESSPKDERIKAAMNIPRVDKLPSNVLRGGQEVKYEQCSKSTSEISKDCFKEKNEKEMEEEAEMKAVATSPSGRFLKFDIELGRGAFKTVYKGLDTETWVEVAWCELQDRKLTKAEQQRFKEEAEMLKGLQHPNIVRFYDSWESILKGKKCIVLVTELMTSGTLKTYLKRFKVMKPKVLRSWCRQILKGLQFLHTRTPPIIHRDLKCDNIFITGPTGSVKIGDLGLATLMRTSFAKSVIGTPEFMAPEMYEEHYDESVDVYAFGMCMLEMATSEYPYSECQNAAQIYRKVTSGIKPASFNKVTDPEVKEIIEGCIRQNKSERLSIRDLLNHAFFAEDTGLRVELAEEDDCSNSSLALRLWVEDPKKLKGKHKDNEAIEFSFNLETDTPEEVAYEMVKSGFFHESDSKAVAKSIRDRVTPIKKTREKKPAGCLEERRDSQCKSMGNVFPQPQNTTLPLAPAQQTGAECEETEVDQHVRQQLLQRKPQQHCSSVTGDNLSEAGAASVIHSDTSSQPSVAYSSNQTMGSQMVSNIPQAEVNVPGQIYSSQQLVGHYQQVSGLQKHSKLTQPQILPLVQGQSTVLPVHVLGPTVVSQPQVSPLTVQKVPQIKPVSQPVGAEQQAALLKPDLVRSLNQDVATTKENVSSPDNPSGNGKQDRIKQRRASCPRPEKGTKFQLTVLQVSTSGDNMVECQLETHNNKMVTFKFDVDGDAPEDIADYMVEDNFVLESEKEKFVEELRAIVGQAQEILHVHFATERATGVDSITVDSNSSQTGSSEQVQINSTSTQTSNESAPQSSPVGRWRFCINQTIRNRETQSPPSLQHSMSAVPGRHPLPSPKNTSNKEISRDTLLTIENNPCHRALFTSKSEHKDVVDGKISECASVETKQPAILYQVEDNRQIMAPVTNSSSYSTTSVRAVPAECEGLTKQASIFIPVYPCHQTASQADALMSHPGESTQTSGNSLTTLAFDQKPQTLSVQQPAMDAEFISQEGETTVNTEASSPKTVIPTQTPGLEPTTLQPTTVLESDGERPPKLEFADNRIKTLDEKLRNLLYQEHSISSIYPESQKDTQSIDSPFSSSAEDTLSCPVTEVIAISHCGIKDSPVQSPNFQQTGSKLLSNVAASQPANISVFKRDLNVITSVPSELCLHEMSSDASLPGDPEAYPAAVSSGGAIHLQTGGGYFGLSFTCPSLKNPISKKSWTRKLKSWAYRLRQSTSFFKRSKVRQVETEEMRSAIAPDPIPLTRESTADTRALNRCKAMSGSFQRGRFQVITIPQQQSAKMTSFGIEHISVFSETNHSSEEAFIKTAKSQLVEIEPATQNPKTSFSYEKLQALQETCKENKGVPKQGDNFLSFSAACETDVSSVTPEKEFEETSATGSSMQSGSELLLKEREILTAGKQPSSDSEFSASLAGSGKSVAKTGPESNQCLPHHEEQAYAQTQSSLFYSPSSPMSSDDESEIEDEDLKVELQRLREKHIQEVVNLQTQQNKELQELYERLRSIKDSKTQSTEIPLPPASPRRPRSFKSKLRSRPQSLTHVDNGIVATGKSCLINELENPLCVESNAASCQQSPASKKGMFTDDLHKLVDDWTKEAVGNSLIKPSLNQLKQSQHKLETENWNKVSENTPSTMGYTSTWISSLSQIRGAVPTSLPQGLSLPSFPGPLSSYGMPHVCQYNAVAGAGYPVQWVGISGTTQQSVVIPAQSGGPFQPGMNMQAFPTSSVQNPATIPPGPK
Sequence of UniProt P15735 (whole entry, looked up): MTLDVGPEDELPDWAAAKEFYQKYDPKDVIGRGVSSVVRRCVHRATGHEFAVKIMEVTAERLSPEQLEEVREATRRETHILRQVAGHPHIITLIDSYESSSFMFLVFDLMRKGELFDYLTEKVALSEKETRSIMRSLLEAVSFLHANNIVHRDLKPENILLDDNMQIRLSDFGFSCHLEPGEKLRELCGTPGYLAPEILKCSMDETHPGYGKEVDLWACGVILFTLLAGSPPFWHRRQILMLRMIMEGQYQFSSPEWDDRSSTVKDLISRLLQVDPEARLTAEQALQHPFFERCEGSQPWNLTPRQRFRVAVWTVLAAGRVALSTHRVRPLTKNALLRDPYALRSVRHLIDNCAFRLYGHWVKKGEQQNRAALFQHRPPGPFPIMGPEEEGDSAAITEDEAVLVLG
Sequence of UniProt O75716 (whole entry, looked up): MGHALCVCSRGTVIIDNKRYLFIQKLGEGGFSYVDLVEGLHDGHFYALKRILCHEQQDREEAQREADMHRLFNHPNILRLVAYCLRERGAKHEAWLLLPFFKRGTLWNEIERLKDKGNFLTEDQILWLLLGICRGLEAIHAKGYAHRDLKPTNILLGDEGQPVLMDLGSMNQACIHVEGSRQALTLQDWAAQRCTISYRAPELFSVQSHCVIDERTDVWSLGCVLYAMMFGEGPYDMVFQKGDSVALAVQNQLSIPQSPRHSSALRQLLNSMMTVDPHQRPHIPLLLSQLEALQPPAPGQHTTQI
Sequence of UniProt O95382 (whole entry, looked up): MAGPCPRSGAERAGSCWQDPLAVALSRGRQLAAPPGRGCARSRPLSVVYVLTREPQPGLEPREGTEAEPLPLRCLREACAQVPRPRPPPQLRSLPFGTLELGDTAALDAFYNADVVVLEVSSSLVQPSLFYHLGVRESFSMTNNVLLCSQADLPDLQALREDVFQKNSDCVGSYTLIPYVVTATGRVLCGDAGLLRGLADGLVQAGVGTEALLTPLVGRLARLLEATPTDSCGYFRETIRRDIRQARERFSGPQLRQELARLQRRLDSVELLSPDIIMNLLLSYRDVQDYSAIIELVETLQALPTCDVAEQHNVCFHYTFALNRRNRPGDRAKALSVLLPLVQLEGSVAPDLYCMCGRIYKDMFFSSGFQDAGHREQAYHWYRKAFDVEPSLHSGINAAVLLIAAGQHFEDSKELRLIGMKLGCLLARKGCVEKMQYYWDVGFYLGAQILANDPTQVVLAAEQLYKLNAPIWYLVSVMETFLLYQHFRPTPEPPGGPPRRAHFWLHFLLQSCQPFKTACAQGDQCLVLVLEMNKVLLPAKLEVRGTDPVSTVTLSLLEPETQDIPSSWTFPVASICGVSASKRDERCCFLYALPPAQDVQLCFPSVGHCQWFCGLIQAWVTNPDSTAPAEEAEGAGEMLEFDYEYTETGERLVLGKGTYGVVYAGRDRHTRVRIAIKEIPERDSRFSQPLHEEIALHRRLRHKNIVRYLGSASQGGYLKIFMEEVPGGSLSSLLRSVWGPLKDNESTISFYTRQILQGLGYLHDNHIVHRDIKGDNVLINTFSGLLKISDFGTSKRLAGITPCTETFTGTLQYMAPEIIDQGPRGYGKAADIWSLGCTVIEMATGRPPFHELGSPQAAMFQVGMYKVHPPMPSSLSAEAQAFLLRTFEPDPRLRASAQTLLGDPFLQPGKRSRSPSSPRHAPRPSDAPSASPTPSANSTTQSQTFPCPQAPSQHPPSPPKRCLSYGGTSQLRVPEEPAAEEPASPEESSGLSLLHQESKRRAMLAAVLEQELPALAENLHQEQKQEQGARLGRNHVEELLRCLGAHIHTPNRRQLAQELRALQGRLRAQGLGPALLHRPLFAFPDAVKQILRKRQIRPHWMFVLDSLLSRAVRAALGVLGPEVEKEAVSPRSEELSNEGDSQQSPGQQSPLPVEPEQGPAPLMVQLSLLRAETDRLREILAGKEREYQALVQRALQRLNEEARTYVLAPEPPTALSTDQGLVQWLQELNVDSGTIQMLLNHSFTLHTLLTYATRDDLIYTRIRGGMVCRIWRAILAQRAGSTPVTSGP

Series 1
Species: human
Matrix: microsomes or S9
Tested at: 2 µM
Time: 0.5 h
Endpoint: remaining compound
O[C@@H]1C[C@@H](c2nnc3n2CCOC3)C[C@@H]1CNc1ncc(Cl)cn1: 76.8%
CC(=O)N1N=C(Cn2nc(C)cc2C)OC1c1ccccc1OCc1cccc(Br)c1 (centres unmarked): 5.01%
O=c1[nH]nc2c3scc(-c4ccc(F)cc4)c3ncn12: 95.7%
CC(C)Cc1csc2nc(O)n3nc(-c4ccco4)nc3c12: 65.3%
Cc1ccc(C(C)C)c(OCC(O)CN2CCN(CCO)CC2)c1 (centres unmarked): 80.6%
Cc1noc(C)c1S(=O)(=O)N1CCCC(Oc2nc(C(C)C)nc3c2CCOCC3)C1 (centres unmarked): 0.288%
Cc1ccccc1-c1noc(-c2cc3c(COC(=O)C(C)C)cnc(C)c3oc2=O)n1: 10.4%
C/C=C/C=C/C(=O)N1CCN(C(C)C(N)=O)CC1 (centres unmarked): 79.2%
Clc1ccc2c(c1)C=C(c1nnc(Cc3ccccc3)o1)C=CO2: 76.6%
Cc1ccc(-c2noc(CCC(=O)N(C)C)n2)c(=O)n1C(C)C: 75.4%
CN(C)CCCOc1ccc(CN2CCC(NC(=O)c3ccco3)CC2)cc1: 63.5%

Series 2
SMILES: O=C(NCc1ncc(C(F)(F)F)cc1Cl)c1ccc2c(c1)C1(CCS(=O)(=O)CC1)[C@@H](C1CC1)N2S(=O)(=O)c1ccc(F)cc1
Tested at: 1 µM
Endpoint: remaining binding
Tyrosine-protein kinase Fer (FER, Homo sapiens, UniProt P16591); cell-free assay, competition with immobilised ligand: 100%
Glycogen synthase kinase-3 beta (GSK3B, Homo sapiens, UniProt P49841); cell-free assay, competition with immobilised ligand: 90%
Cyclin-dependent kinase 4 (CDK4, Homo sapiens, UniProt P11802); cell-free assay, competition with immobilised ligand: 82%
Phosphorylase b kinase gamma catalytic chain, liver/testis isoform (PHKG2, Homo sapiens, UniProt P15735); cell-free assay, competition with immobilised ligand: 84%
Proto-oncogene tyrosine-protein kinase receptor Ret (RET, Homo sapiens, UniProt P07949); cell-free assay, competition with immobilised ligand: 100%
Transient receptor potential cation channel subfamily M member 6 (TRPM6, Homo sapiens, UniProt Q9BX84); cell-free assay, competition with immobilised ligand: 92%
Casein kinase I isoform alpha (CSNK1A1, Homo sapiens, UniProt P48729); cell-free assay, competition with immobilised ligand: 81%
Serine/threonine-protein kinase MRCK gamma (CDC42BPG, Homo sapiens, UniProt Q6DT37); competition binding: 93%
Dual specificity tyrosine-phosphorylation-regulated kinase 1B (DYRK1B, Homo sapiens, UniProt Q9Y463); cell-free assay, competition with immobilised ligand: 100%
Receptor-type tyrosine-protein kinase FLT3 (FLT3, Homo sapiens, UniProt P36888, R834Q); cell-free assay, competition with immobilised ligand: 84%
Serine/threonine-protein kinase pim-3 (PIM3, Homo sapiens, UniProt Q86V86); cell-free assay, competition with immobilised ligand: 85%
MAP/microtubule affinity-regulating kinase 4 (MARK4, Homo sapiens, UniProt Q96L34); cell-free assay, competition with immobilised ligand: 100%
Mitogen-activated protein kinase kinase kinase 6 (MAP3K6, Homo sapiens, UniProt O95382); cell-free assay, competition with immobilised ligand: 68%
Mitogen-activated protein kinase kinase kinase kinase 3 (MAP4K3, Homo sapiens, UniProt Q8IVH8); cell-free assay, competition with immobilised ligand: 100%
Mitotic checkpoint serine/threonine-protein kinase BUB1 (BUB1, Homo sapiens, UniProt O43683); cell-free assay, competition with immobilised ligand: 1.9%
Serine/threonine-protein kinase Nek4 (NEK4, Homo sapiens, UniProt P51957); cell-free assay, competition with immobilised ligand: 99%
Cyclin-dependent kinase 13 (CDK13, Homo sapiens, UniProt Q14004); cell-free assay, competition with immobilised ligand: 89%
G protein-coupled receptor kinase 3 (GRK3, Homo sapiens, UniProt P35626); cell-free assay, competition with immobilised ligand: 100%
cAMP-dependent protein kinase catalytic subunit PRKX (PRKX, Homo sapiens, UniProt P51817); cell-free assay, competition with immobilised ligand: 100%

Series 3
Target: Diamine acetyltransferase 1 (Homo sapiens, UniProt P21673)
Action: inhibitor
Tested at: 10 µM
Baseline: control
Endpoint: remaining activity
Construct (P21673 1-171): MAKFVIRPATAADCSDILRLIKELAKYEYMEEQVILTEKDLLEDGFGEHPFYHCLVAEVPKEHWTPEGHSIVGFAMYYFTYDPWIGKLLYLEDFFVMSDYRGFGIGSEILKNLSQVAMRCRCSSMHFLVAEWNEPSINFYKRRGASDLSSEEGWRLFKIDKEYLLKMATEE
CCCCC/C=C\C/C=C\CCCCCCCC(=O)OCC(COC(=O)CCCCCCC/C=C\C/C=C\CCCCC)OC(=O)CCCCCCC/C=C\C/C=C\CCCCC: 97%
Oc1cc(O)c2ccccc2c1: 101%
COc1cc([C@@H]2OC[C@@H]3[C@H]2CO[C@H]3c2cc(OC)c(O[C@@H]3O[C@H](CO)[C@@H](O)[C@H](O)[C@H]3O)c(OC)c2)cc(OC)c1O: 94.4%
O=c1cc(-c2ccccc2)oc2cc(O)cc(O)c12: 100%
O=C1CC[C@@H](C(=O)O)N1: 85.4%
C/C=C/c1ccc(OC)cc1: 93.6%
COc1ccc(CC(=O)O)cc1OC: 79.5%
COc1cc(O)cc2c1C(=O)C[C@@H](c1ccccc1)O2: 98.5%
COc1cc(O)c2c(=O)c(OC)c(-c3ccc(O)cc3)oc2c1: 93.8%
O=C(O)c1cc(O)c2c(c1)C(=O)c1cccc(O)c1C2=O: 75.7%
CC(=O)O[C@@H]1C[C@H](C)CC[C@H]1C(C)C: 100%
Cc1cc(O)c2c(c1)C(=O)c1cc(O)cc(O[C@@H]3O[C@H](CO)[C@@H](O)[C@H](O)[C@H]3O)c1C2=O: 97.2%

Series 4
Structure (SMILES): O=C1NC(=O)C(c2c[nH]c3ccccc23)=C1c1c[nH]c2ccccc12
Observed: enzyme activity
Action: inhibitor
Tested at: 0.5 µM
Baseline: control
Endpoint: remaining activity
Mitogen-activated protein kinase kinase kinase kinase 4 (MAP4K4, Homo sapiens, UniProt O95819): 58.5%
Homeodomain-interacting protein kinase 4 (HIPK4, Homo sapiens, UniProt Q8NE63): 109%
Cyclin-dependent kinase 4, with cyclin D3 (CDK4, Homo sapiens, UniProt P11802): 89.8%
Cyclin-dependent kinase 1, with cyclin B (CDK1, Homo sapiens, UniProt P06493): 96.5%
Phosphorylase b kinase gamma catalytic chain, skeletal muscle/heart isoform (PHKG1, Homo sapiens, UniProt Q16816): 74.9%
Ephrin type-B receptor 1 (EPHB1, Homo sapiens, UniProt P54762): 83.1%
Ephrin type-A receptor 4 (EPHA4, Homo sapiens, UniProt P54764): 87.6%
Dual specificity tyrosine-phosphorylation-regulated kinase 3 (DYRK3, Homo sapiens, UniProt O43781): 101%
Ribosomal protein S6 kinase alpha-6 (RPS6KA6, Homo sapiens, UniProt Q9UK32): 19.2%
Tyrosine-protein kinase receptor UFO (AXL, Homo sapiens, UniProt P30530): 103%
Cyclin-dependent kinase 6, with cyclin D3 (CDK6, Homo sapiens, UniProt Q00534): 103%
Ephrin type-B receptor 4 (EPHB4, Homo sapiens, UniProt P54760): 88.5%
Calcium/calmodulin-dependent protein kinase type II subunit beta (CAMK2B, Homo sapiens, UniProt Q13554): 96.9%
Serine/threonine-protein kinase 17A (STK17A, Homo sapiens, UniProt Q9UEE5): 92.2%
3-phosphoinositide-dependent protein kinase 1 (PDPK1, Homo sapiens, UniProt O15530): 96.7%
Homeodomain-interacting protein kinase 2 (HIPK2, Homo sapiens, UniProt Q9H2X6): 104%
Serine/threonine-protein kinase 16 (STK16, Homo sapiens, UniProt O75716): 94.2%
Testis-specific serine/threonine-protein kinase 2 (TSSK2, Homo sapiens, UniProt Q96PF2): 110%
Ribosomal protein S6 kinase alpha-5 (RPS6KA5, Homo sapiens, UniProt O75582): 62%
Tyrosine-protein kinase Blk (BLK, Homo sapiens, UniProt P51451): 93.7%
MAP kinase-activated protein kinase 3 (MAPKAPK3, Homo sapiens, UniProt Q16644): 90.5%
Tyrosine-protein kinase Srms (SRMS, Homo sapiens, UniProt Q9H3Y6): 82.4%
Serine/threonine-protein kinase WNK3 (WNK3, Homo sapiens, UniProt Q9BYP7): 98.3%

For quick reference, copied from above (series 1):
O=c1[nH]nc2c3scc(-c4ccc(F)cc4)c3ncn12: 95.7%
CC(C)Cc1csc2nc(O)n3nc(-c4ccco4)nc3c12: 65.3%
Cc1ccc(C(C)C)c(OCC(O)CN2CCN(CCO)CC2)c1 (centres unmarked): 80.6%
Cc1noc(C)c1S(=O)(=O)N1CCCC(Oc2nc(C(C)C)nc3c2CCOCC3)C1 (centres unmarked): 0.288%
Cc1ccccc1-c1noc(-c2cc3c(COC(=O)C(C)C)cnc(C)c3oc2=O)n1: 10.4%
C/C=C/C=C/C(=O)N1CCN(C(C)C(N)=O)CC1 (centres unmarked): 79.2%
Clc1ccc2c(c1)C=C(c1nnc(Cc3ccccc3)o1)C=CO2: 76.6%
